# Assay results gathered from unrelated publications.
# Numbered parts are unrelated; each lists some results of a single study.

# Set 1 — method: RNA Bind-n-Seq; form: RNA; matrix: in vitro; concentration: not given; reference: input RNA pool; reading: higher = stronger binding
# Target: RING finger protein unkempt homolog, zinc fingers 1-6, GST-SBP tag (UNK, Homo sapiens, UniProt Q9C0B0, residues 30-357)
# Notes: RNA with constant flanks, human and mouse sites, ends assumed
# Shared flanks, not repeated: GGGAGUUCUACAGUCCGACGAUC … CAACAGAGGAUUGAGCAUCA
# Residues (chain): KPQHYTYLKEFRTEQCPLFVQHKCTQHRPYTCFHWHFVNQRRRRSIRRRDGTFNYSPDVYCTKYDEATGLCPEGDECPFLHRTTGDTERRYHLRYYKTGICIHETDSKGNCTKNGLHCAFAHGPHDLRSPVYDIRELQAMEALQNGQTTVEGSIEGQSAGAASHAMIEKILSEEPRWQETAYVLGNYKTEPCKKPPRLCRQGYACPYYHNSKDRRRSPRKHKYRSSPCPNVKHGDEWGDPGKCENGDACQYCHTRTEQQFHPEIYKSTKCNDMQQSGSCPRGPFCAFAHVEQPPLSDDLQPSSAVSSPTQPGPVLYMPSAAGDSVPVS
Oligonucleotide,bound/input enrichment [ratio]
GUGACCAGCGCUGUGGACCAGCUGCAGCAGGAGUUCCACUGCUGUGGCAGCAACAACUCACAGGACUGGCGAGACAGUGAGUGGAUCCGCUCACAGGAGGCCGGUGGCCGUGUGGUCCCA,0.047
AUAUACAUGUUAUAGAACAUGUUCUCCACAUAAAAGCCAUAGGGACCCCCUUCUUUAAAAAAAAAAUCAUUUGAAAAGAAUAAGUUUGCCCAGUGUGGUGCAAGCCAGUAUCCCUAGCGC,0.329
AAGGGAGGAAUCCUACGUUUUAUAUGUUUUUUUUUUCUUUGUUAAUUCUACACUUUGAAAGUGUUGGCUAAAUAAACUAAUCCAAAAGUUAUUUUUUCCUAUCGAGAAGACAGAAAAAGG,0.561
UCUGAGACUUCUUUCUUCCUUCCUUUUUUUUUUUUUGUUUUUUUUUUUAAGAGCCUGUGAUAGUUACUGUGGAGCAGCCAGUUCAUGGGGUCCCCCUUGGGGCCCCACACCCCGUCUCUC,2.57
GACAGGACUGCUUUGGAUACUAUCAAGGAACAAACACAAAGUGGUGGUGACCUUCGGAGUAGCUCACAGCCCACAGCCGCCAGCGCUCCUCAGAGCUUGAGCAGUCAACGGCGGCUGGUC,0.0847
GAGGAAGGACUGAAGACAGCGGACCCUCAUGACUGCUCUGCAUAUACUGGUUGGACAGGCAUAGCACUUUUGUACCUGCAGCUGUACCGGGUCACUGGUGACCAGACCUACCUGCUUCGA,0.101
GAAAGAAGCAGCAGCCCACCUUCUUUGUGUUUGCACAUGUGCCUAUGUCGUGUACAUUGGUACCUGACUGUGGCUCAGAUCUGCGUCGCAGCAGCGAGAGAAGAAAUCACUCCAUAUCCG,0.149
GCCCAUGAUGCCGUGGCACAGGAAGGCCAAUGUCGGGUAGAUGACAAGGUGAAUUUCCAUUUUAUUCUGUUUAACAACGUGGAUGGCCACCUCUAUGAACUUGAUGGACGAAUGCCUUUU,0.104
GUACUAAGUGAACUGGAGCCCCUAUGUCUGGCAGAACAGGACUUCAUAAGUAAAUUUUUCAAACUACAGCAACAUCAAAGUAUGCCUGGAACUAUGGCUGAAGCAGAGGACCUGGAUGGA,0.415
UAUACUUCAUUGGGACCACGAGUAACUGAUGUAGCCACAUAAGGAGACAUAGGUUAUAAACUAGUUAUCUUUUAAAAGGCUCAGCAACACAACUCUUGAAAUGCUUAUCAGGAUAAUGGU,1.21
AGGACUUCAUUCCUCCAUGUUUUCUUCCCUUAUCUUACUGUCAUUGUCCUUAAACCUUAUUUUAGAAAAUUGAUGAAGUAACAUGUUGCAUGUGGCUUACUCUGGCUAUAUCUAAGCCCG,4.15

# Set 2 — method: RNA Bind-n-Seq; form: RNA; matrix: in vitro; concentration: 365 nM; reference: no-protein control; reading: higher = stronger binding
# Target: RNA binding protein fox-1 homolog 2, RRM domain, GST-SBP tag (RBFOX2, Homo sapiens, UniProt O43251-10, residues 100-194)
# Notes: natural RNA segment, single round, ends assumed
# Shared flanks, not repeated: GGGAGUUCUACAGUCCGACGAUC … UGGAAUUCUCGGGUGCCAA
# Residues (chain): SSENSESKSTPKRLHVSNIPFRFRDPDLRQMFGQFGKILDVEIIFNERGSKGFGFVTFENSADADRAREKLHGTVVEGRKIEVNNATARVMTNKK
Oligonucleotide,RBNS enrichment (R)
UCCCUGCUCCCCCAGUUUUUUUUCUCUUUGUUAACAAAUGUGUCUGAGUCUUGGAAAACACCCCAAACCCGGAAAUGUGUGGGAAAAAGAAAACAAAAACUUUCCAAAUU,0.519
GGGGACCCCUGGGCCUGGGGUGCCCUCCUGAUGUCCUCGCCCUGUAUUUCUCCAUCUCCAGUUCUGGACAGUGCAGGUUGCCAAGAAAAGGGACCUAGUUUAGCCAUUGC,0.865
GCCCUUCCCACCUGGACAGUGGUGUGUGUAGAAAGCCAGCUGGAUGUUUGUGGUGGGGCCUCAUGGUGCCUAGGAGGAGAUAAAGAUGAGGAGGUUUUUCCUUAUUGUAU,0.771
AUCCAAAAUAAAAACCCAGACUAGAAUAGGGUUCUUAAAAUCAAGUAUCAAUACAAAAUAGAACACAAUUAAAAUCUUAAUUGUUGGCUGGGCACAGUGGCUCACGCCUG,0.352
CGUGGCAUAGAAAAGAACAUGUUCAGAAGCCAUGGGGCCAAGCACAUGCGGGGACGGUCUCAAAUGCGUGAUCAGAGAAUCCUUCACCUUUGCUGAAAAGUGAGCUCAGA,0.3
CCAGUGUCGGUGGCCCGGCACAGGGCCGUGCUCUGUCGGACUGUACGGAUUGUUCAGCUUCAGACUGACAAAUGCCUUUCUCACAAGUUCCUGCUUCUUGCCGUGAUACU,0.19
UACCACUUCUGCUGAGGAGACCACUUAAAAUUCAUUCCUGAGUUUCCACUGUGGGAGAAUACCCAUGGAAUAAGAUAAAAAAUUAAUUCCACACCCUAGUGUGUGUAAGU,0.338
UUUAUAUGUGACAAGUGAAAAUUAUAUGAAAUUUAAGAGUCCAUAAAUAAAAUUUGUUGGAACACAACCAGGCUAAUUCAUUUAGUAUUGUGAUAGCUGCUUUCGCGCUA,0.575
ACCUAAAGAUAAAACCAAUUCACAAACUGAAGGUAGCUUUUUAUUACUCCGUGGGGAGCAUGUACAGAGCUCUGUGUAUACACAGCUUCACACCCACCAGAUUGUUACUA,5.52
GAGUGCCAUCCGCCUCCCAGUCCGGUGUCACUCACCCAACCUUGUACAUGACUAGCUCUCCCAGUGUCCAAGCGCGUGCCUUCCCCGAGCCACUGGGGCGCAGCAGCGCG,0.291
UUUCUUAAUUUGCAAAUUUCUUCUUAUUUUGGUACUUGGAAUAUAGUGUGAGAUUUUUUAUUUCUAAAUUUUGUUGUAUCUUCUAUUACAUAAAUGCAUUGACAAUUAUA,1.65
ACUUGGAAAAACUCAUUUCUGUGCUGCAAAGCAAUGGUGGGGAGGCGCAGUGCCGCGACUGCUGUAGUGGUUUCUAGCCAAUAAUAAAACUUUAAUUGGUUGUUCAGUUG,0.266

# Set 3 — method: RNA Bind-n-Seq; form: RNA; matrix: in vitro; concentration: 1 µM; notes: whole 134-nt RNA, ends assumed; with: 150 mM KCl; reference: input library; reading: higher = stronger binding
# Target: Ras GTPase-activating protein-binding protein 1, RRM domain (G3BP1, Homo sapiens, UniProt Q13283)
# UniProt Q13283, sequence (whole entry, looked up): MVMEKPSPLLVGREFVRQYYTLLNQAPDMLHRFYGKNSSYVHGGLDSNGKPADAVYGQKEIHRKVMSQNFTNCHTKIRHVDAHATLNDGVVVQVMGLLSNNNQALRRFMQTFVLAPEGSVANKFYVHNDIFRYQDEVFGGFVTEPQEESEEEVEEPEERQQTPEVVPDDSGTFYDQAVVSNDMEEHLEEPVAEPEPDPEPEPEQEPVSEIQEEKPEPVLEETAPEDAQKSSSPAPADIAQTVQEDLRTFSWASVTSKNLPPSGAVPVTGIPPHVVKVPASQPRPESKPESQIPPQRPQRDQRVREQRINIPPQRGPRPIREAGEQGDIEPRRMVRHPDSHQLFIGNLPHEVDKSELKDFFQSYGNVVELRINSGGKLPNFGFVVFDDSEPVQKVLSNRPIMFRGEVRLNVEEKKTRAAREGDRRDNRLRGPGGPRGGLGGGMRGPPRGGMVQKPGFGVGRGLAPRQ
# Shared flanks, not repeated: GGGAGUUCUACAGUCCGACGAUC … UGGAAUUCUCGGGUGUCAAGG
Oligonucleotide,log2 enrichment
CACAGACAACACGCACUCACACAGACACAGAGGGAAGGGGUUGGGAUGGGGACAGGGUGCACAGCAGGGCGGGGUAGGACCCCAGCCCCU,0.0907
CACAGACAACACGCACCCACACAGACACAGAGGGAAGGGGUUGGAAUGGGGACAGGGUGCACAGCAGGGCGGGGUAGGACCCCAGCCCCU,-0.0367
UGGUUUUGGUGCCUGGCAUCGAAGAUGGUGUGUUCUUUCUGGAAACUGUAUAUCUUAUUGGACUUAUCCAGAUGAUGAGAAACGCAAGGU,-0.133
UUGGAGGUGGAUUUUGUUUAUUUUUUUAGCUCAUUUCCAGGGGUGGGAAUUUUUUUUUAAUAUGUGUCAUGAAUAAAGUUGUUUUUGAAA,1.62
GUCCUGUGCUACACAUCGUAUGUACCGAAUCGGAAAAAGGGGAAAAAGGGAAAAAGGGAAAGUAUUAUGUUACGCCGUUCGGAUCUGCAC,0.161
CACAGACAACACGCACCCACACGGACACAGAGGGAAGGGGUUGGGAUGGGGACAGGGUGCACAGCAGGGCGGGGUAGGACCCCAGCCCCU,-0.038
AGAGAAUAAGAAUUCAGCUGACAGGAGGCCUCUAUCCUGUCCCUCCACCCCACCCUCCACCUCAAUCCCCUCCCAUCUUCCCCAGACCUA,0.0353
UAACUUUAGAGGAGUAUCUGAUGGAUAUGGCAGUGGACGUGGAUUUGGGGAUGGCUAUAAUGGGUAUGGAGGAGGACCUGGAGGUGGCAA,-0.359
ACCAUGCAUGUGGGCAUCUUUGGGAAGUGGGGCAAGGGGGGGAUAGGGAGGGGGGUAACACUUUGGGAACAGGUGGUCCCAGGUCGUUUC,-0.526
CCUGUGCUACACAUCGUAUGUACCGAAUCGGGCCCCCCCGGGCCCCCCCGGGCCCCCCCGGAAAGUAUUAUGUUACGCCGUUCGGAUCUG,-0.687
UUUUAUUCUUCCAUCUUUUCCCACAGGUGGCAGCUGCCAACAAGAAGCAUUAGAACAAACCAUGCUGGGUUAAUAAAUUGCCUCAUUCGU,-0.185
GCAGGAAGUAAAAACAAAUGGAAAUGCUUCGGAUAGUGGCAGGGGUAAAGGUUGCUAAGGAAAGGGUGGGAUGGGAGUGGGUAAAGAGUU,1.17
UGGGAGGUGGAUUUUGUUUAUUUUUUUAGCUCAAUUCCAGGGGUGGGAAUUUUUUUUUAAUAUGUGUCAUGAAUAAAGUUGUUUUUGAAA,2
AGUCCUGUGCUACACAUCGUAUGUACCGAAUCGGGCCCCGGGGCCCCGGGCCCCGGGGAAAGUAUUAUGUUACGCCGUUCGGAUCUGCAC,-1.3

# Set 4 — method: protein binding microarray; form: double-stranded DNA, one strand shown; matrix: in vitro; concentration: not given; reference: not given; reading: higher = stronger binding
# Target: Histone acetyltransferase KAT6A, winged helix 1, GST fusion (KAT6A, Homo sapiens, UniProt Q92794, residues 1-85)
# Notes: 8-mer, flanks averaged, mean of 2 arrays, mostly near background
# Construct (chain): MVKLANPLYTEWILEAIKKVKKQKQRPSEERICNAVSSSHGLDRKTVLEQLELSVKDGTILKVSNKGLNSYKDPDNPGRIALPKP
Oligonucleotide,E-score
ACTCTAGC,0.00283
CGCCTTAG,0.184
AAGTACGA,-0.0283
AAAGGTGT,-0.0464
ACTTCTGA,-0.118
CAGTTTTC,-0.0792
CGATGCGC,0.314
AAAGCCGC,0.363
GCCTCCCC,0.139
ATTGTCTC,-0.0914
CACCACTG,-0.218
CTAGTAGA,-0.186
CTGGAAGC,-0.0517
GGGAGGAC,0.0635
GTAGGACA,-0.00763
CAGCCAAC,-0.0329
ATCCCCAC,-0.18
CATCGCCC,0.132
ACGGAGAG,0.118
CCCCGTTC,0.139
GGTAACTA,0.0526
AGCGGGAG,0.208
AGGACTAT,-0.149
ACTTCGCG,0.11
ATAATGAA,-0.258
